{"data": "Measurements from different studies", "T1": "PDHA1/PDHB 30-390 E229A on β (Homo sapiens); chain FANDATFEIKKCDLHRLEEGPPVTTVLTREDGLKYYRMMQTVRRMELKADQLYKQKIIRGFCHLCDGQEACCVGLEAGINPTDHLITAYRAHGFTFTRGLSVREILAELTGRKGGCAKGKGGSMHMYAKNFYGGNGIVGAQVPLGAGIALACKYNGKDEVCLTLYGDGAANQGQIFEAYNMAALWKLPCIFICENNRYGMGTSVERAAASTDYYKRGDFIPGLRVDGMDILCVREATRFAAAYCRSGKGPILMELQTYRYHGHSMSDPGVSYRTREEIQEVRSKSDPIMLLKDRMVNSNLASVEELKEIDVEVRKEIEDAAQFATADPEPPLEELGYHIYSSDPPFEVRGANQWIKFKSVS; chain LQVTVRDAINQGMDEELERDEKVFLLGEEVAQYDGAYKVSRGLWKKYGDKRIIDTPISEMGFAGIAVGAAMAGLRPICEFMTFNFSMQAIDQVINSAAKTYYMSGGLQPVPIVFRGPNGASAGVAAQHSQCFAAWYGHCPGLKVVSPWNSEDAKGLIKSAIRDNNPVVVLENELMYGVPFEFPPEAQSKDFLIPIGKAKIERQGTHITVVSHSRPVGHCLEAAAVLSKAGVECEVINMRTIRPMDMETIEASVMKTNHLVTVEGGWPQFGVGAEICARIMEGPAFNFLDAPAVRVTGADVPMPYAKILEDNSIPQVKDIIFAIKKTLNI", "B1": "DNAJB11 (Homo sapiens, UniProt Q9UBS4); chain GRDFYKILGVPRSASIKDIKKAYRKLALQLHPDRNPDDPQAQEKFQDLGAAYEVLSDSEKRKQYDTYGEEGLKDGHQSSHGDIFSHFFGDFGFMFGGTPRQQDRNIPRGSDIIVDLEVTLEEVYAGNFVEVVRNKPVARQAPGKRKCNCRQEMRTTQLGPGRFQMTQEVVCDECPNVKLVNEERTLEVEIEPGVRDGMEYPFIGEGEPHVDGEPGDLRFRIKVVKHPIFERRGDDLYTNVTISLVESLVGFEMDITHLDGHKVHISRDKITRPGAKLWKKGEGLPNFDNNNIKGSLIITFDVDFPKEQLTEEAREGIKQLLKQGSVQKVYNGLQGY", "B2": "DIS3 (Saccharomyces cerevisiae, UniProt Q08162); sequence looked up; chain MSVPAIAPRRKRLADGLSVTQKVFVRSRNGGATKIVREHYLRSDIPCLSRSCTKCPQIVVPDAQNELPKFILSDSPLELSAPIGKHYVVLDTNVVLQAIDLLENPNCFFDVIVPQIVLDEVRNKSYPVYTRLRTLCRDSDDHKRFIVFHNEFSEHTFVERLPNETINDRNDRAIRKTCQWYSEHLKPYDINVVLVTNDRLNREAATKEVESNIITKSLVQYIELLPNADDIRDSIPQMDSFDKDLERDTFSDFTFPEYYSTARVMGGLKNGVLYQGNIQISEYNFLEGSVSLPRFSKPVLIVGQKNLNRAFNGDQVIVELLPQSEWKAPSSIVLDSEHFDVNDNPDIEAGDDDDNNESSSNTTVISDKQRRLLAKDAMIAQRSKKIQPTAKVVYIQRRSWRQYVGQLAPSSVDPQSSSTQNVFVILMDKCLPKVRIRTRRAAELLDKRIVISIDSWPTTHKYPLGHFVRDLGTIESAQAETEALLLEHDVEYRPFSKKVLECLPAEGHDWKAPTKLDDPEAVSKDPLLTKRKDLRDKLICSIDPPGCVDIDDALHAKKLPNGNWEVGVHIADVTHFVKPGTALDAEGAARGTSVYLVDKRIDMLPMLLGTDLCSLKPYVDRFAFSVIWELDDSANIVNVNFMKSVIRSREAFSYEQAQLRIDDKTQNDELTMGMRALLKLSVKLKQKRLEAGALNLASPEVKVHMDSETSDPNEVEIKKLLATNSLVEEFMLLANISVARKIYDAFPQTAMLRRHAAPPSTNFEILNEMLNTRKNMSISLESSKALADSLDRCVDPEDPYFNTLVRIMSTRCMMAAQYFYSGAYSYPDFRHYGLAVDIYTHFTSPIRRYCDVVAHRQLAGAIGYEPLSLTHRDKNKMDMICRNINRKHRNAQFAGRASIEYYVGQVMRNNESTETGYVIKVFNNGIVVLVPKFGVEGLIRLDNLTEDPNSAAFDEVEYKLTFVPTNSDKPRDVYVFDKVEVQVRSVMDPITSKRKAELLLK", "B3": "DLAT 214-416 (Homo sapiens, UniProt P10515); sequence looked up; chain SYPPHMQVLLPALSPTMTMGTVQRWEKKVGEKLSEGDLLAEIETDKATIGFEVQEEGYLAKILVPEGTRDVPLGTPLCIIVEKEADISAFADYRPTEVTDLKPQVPPPTPPPVAAVPPTPQPLAPTPSAPCPATPAGPKGRVFVSPLAKKLAVEKGIDLTQVKGTGPDGRITKKDIDSFVPSKVAPAPAAVVPPTGPGMAPVP", "B4": "UGT1A9 (Homo sapiens, UniProt O60656); chain GKLLVVPMDGSHWFTMRSVVEKLILRGHEVVVVMPEVSWQLGRSLNCTVKTYSTSYTLEDLDREFKAFAHAQWKAQVRSIYSLLMGSYNDIFDLFFSNCRSLFKDKKLVEYLKESSFDAVFLDPFDNCGLIVAKYFSLPSVVFARGILCHYLEEGAQCPAPLSYVPRILLGFSDAMTFKERVRNHIMHLEEHLLCHRFFKNALEIASEILQTPVTEYDLYSHTSIWLLRTDFVLDYPKPVMPNMIFIGGINCHQGKPLPMEFEAYINASGEHGIVVFSLGSMVSEIPEKKAMAIADALGKIPQTVLWRYTGTRPSNLANNTILVKWLPQNDLLGHPMTRAFITHAGSHGVYESICNGVPMVMMPLFGDQMDNAKRMETKGAGVTLNVLEMTSEDLENALKAVINDKSYKENIMRLSSLHKDRPVEPLDLAVFWVEFVMRHKGAPHLRPAAHDLTWYQYHSLDVIGFLLAVVLTVAFITFKCCAYGYRKCLGKKGRVKKAHKSKTH", "B5": "ARRB1 A12C/V387C (Homo sapiens, UniProt P49407); AlexaFluor 488, ATTO647N labels; chain MGDKGTRVFKKCSPNGKLTVYLGKRDFVDHIDLVDPVDGVVLVDPEYLKERRVYVTLTVAFRYGREDLDVLGLTFRKDLFVANVQSFPPAPEDKKPLTRLQERLIKKLGEHAYPFTFEIPPNLPSSVTLQPGPEDTGKALGVDYEVKAFVAENLEEKIHKRNSVRLVIRKVQYAPERPGPQPTAETTRQFLMSDKPLHLEASLDKEIYYHGEPISVNVHVTNNTNKTVKKIKISVRQYADIVLFNTAQYKVPVAMEEADDTVAPSSTFSKVYTLTPFLANNREKRGLALDGKLKHEDTNLASSTLLREGANREILGIIVSYKVKVKLVVSRGGLLGDLASSDVAVELPFTLMHPKPKEEPPHREVPENETPVDTNLIELDTNDDDICFEDFARQRLKGMKDDKEEEEDGTGSPQLNNR", "B6": "fliG 116-335 (Thermotoga maritima, UniProt Q9WY63); sequence looked up; chain PVQLVNFLQSEHPQTIAVVLSYLDPPVAAQILGALPEELQTEVLKRIALLERTSPEVVKEIERNLEKKISGFVSRTFSKVGGIDTAAEIMNNLDRTTEKKIMDKLVQENPELADEIRRRMFVFEDILKLDDRSIQLVLREVDTRDLALALKGASDELKEKIFKNMSKRAAALLKDELEYMGPVRLKDVEEAQQKIINIIRRLEEAGEIVIARGGGEELIM", "B7": "mel-26 (Caenorhabditis elegans, UniProt Q94420); sequence looked up; chain MEPRIDGGVFIGGIGNSGNEMCSNGVPALGVSSQTEIKVEKVQHTWTVKNFSHCYQEYLENFVYLQRGDEQLTWSIKIYPKGNGENNKDFVFLCLNRVINNNVKAGKIGFKSQFKLRTAENKDIEMRIHPNPSHSDYVSYIKRDVLFPQIMPRDMIIVNVEIDVAVETITTTNEPIQFEPTNSEQQLIEDYQRLFSQELLCDFAINVNGKIIRAHKAVLAARSPVFNAMLTHQDTDEAKSSMMYINDMDYDVIYEMVYYIYCGRCNKDITDMATALLIAADKYRLEELKSHCEKYLVENINIENACSLLIIGDLYSAPKLRKRAVTYILARPKNVTGTPGWEDILKGHPNLITDIFSQIDRQSSTGATSSVSNLPGVPMDIPGITGNIVPPPSGL", "note": "Protocols differ between the studies behind these lines.", "chain of UniProt P30989 (whole entry, looked up)": "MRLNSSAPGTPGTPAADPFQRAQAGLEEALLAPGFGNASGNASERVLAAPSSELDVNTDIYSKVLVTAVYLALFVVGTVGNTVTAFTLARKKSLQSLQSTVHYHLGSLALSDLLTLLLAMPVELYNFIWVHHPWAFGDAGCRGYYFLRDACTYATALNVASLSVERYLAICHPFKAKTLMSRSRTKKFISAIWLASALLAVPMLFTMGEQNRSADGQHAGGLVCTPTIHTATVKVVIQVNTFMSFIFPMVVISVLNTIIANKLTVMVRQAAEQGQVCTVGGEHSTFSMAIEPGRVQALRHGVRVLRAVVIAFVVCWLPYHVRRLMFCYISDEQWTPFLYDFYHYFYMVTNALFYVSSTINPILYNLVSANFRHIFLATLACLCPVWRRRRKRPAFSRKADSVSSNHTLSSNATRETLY", "chain of UniProt Q9WZE6 (whole entry, unmodified, looked up)": "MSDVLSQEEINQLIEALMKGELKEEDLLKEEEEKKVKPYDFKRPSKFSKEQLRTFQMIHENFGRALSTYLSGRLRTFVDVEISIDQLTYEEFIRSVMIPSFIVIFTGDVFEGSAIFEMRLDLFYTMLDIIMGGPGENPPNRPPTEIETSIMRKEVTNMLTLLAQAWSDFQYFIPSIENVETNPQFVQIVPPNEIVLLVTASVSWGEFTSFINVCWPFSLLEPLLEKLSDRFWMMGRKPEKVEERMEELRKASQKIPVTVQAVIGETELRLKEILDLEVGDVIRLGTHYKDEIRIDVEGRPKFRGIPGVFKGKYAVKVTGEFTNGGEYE"}
{"Substance": "B1 (DNAJB11)", "tested on": "HSP90B1 D149N (Homo sapiens, UniProt P14625)", "assay": "pull-down", "endpoint": "binding", "value": "binds"}
{"Substance": "B2 (DIS3)", "tested on": "SKI6/RRP45/RRP42/MTR3/RRP46/RRP43/CSL4/RRP4/RRP40 Exo9 core (Saccharomyces cerevisiae)", "assay": "SEC", "endpoint": "binding", "value": "binds"}
{"Substance": "SMARCD1 (Homo sapiens, UniProt Q96GM5-1)", "tested on": "SMARCA4 (Homo sapiens, UniProt P51532-1)", "assay": "cross-linking", "endpoint": "binding", "value": "binds"}
{"Substance": "B3 (DLAT 214-416)", "tested on": "T1, PDHA1/PDHB 30-390 E229A on β (Homo sapiens)", "assay": "SPR", "endpoint": "binding", "value": "binds"}
{"Substance": "B4 (UGT1A9)", "tested on": "O=c1c(O)c(-c2ccc(O)c(O)c2)oc2ccccc12", "assay": "steady-state kinetics", "conditions": "pH 7.4, 37 °C", "endpoint": "Vmax/Km", "value": "22000 µL/min/mg"}
{"Substance": "B5 (ARRB1 A12C/V387C)", "tested on": "NTSR1, GRK5-phosphorylated (Homo sapiens, UniProt P30989)", "assay": "fluorescence titration", "endpoint": "binding", "value": "binds"}
{"Substance": "loqs (Drosophila melanogaster, UniProt Q9VJY9-4)", "tested on": "Dcr-2 G31R (Drosophila melanogaster, UniProt A1ZAW0)", "assay": "pull-down", "endpoint": "binding", "value": "binds"}
{"Substance": "B6 (fliG 116-335)", "tested on": "fliM 1-249 S167C, MTSSL spin label at C167 (Thermotoga maritima, UniProt Q9WZE6)", "assay": "DEER", "endpoint": "binding", "value": "binds"}
{"Substance": "B7 (mel-26)", "tested on": "mei-1/mei-2 S92D, phosphorylated by MBK-2 (Caenorhabditis elegans)", "assay": "dot blot", "conditions": "4 °C, native", "endpoint": "binding", "value": "binds"}
{"note": "For quick reference, copied from above:"}
{"Substance": "B1 (DNAJB11)", "tested on": "HSP90B1 D149N (Homo sapiens, UniProt P14625)", "assay": "pull-down", "endpoint": "binding", "value": "binds"}
